Assay results gathered from unrelated publications.
Compare with care: the assays were run in different laboratories. Converted amounts (≈) assume the structure as drawn.
4'-phosphopantetheinyl transferase PptT: 4'-phosphopantetheinyl transferase PptT (Mycobacterium tuberculosis, UniProt O33336)
UniProt O33336, sequence (whole entry, looked up): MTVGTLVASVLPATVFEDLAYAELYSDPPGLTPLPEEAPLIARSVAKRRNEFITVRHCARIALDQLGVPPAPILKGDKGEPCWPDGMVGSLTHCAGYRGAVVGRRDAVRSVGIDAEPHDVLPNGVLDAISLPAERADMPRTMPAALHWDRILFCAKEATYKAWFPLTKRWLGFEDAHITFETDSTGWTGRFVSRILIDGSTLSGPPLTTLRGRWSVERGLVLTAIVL
UniProt Q6PHR2, sequence (whole entry, looked up): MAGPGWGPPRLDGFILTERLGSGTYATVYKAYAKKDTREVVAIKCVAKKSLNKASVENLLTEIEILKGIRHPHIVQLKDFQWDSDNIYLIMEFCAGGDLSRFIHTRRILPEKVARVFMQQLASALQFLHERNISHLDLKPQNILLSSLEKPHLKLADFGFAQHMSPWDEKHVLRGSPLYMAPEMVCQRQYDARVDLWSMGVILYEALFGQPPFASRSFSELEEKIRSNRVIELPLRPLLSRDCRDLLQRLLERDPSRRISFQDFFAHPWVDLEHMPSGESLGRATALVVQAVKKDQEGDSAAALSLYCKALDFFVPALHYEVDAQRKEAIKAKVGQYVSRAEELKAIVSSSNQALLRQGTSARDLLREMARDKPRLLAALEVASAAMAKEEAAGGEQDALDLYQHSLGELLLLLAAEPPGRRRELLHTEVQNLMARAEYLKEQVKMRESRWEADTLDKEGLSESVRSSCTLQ
UniProt Q15835, sequence (whole entry, looked up): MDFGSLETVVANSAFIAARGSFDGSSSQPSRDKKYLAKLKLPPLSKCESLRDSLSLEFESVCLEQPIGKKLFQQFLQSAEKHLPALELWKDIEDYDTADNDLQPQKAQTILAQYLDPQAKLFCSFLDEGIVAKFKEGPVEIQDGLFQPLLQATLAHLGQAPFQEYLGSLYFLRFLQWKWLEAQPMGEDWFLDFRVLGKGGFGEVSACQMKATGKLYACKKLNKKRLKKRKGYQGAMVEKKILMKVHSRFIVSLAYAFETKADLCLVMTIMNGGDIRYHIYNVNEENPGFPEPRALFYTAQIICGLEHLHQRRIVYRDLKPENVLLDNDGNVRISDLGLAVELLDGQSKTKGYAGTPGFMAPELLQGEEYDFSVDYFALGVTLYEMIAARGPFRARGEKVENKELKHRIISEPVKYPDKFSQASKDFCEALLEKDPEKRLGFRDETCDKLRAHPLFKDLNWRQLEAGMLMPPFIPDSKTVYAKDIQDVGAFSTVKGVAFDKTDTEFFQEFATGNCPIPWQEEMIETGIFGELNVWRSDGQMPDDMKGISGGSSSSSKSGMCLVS
UniProt P42336, sequence (whole entry, unmodified, looked up): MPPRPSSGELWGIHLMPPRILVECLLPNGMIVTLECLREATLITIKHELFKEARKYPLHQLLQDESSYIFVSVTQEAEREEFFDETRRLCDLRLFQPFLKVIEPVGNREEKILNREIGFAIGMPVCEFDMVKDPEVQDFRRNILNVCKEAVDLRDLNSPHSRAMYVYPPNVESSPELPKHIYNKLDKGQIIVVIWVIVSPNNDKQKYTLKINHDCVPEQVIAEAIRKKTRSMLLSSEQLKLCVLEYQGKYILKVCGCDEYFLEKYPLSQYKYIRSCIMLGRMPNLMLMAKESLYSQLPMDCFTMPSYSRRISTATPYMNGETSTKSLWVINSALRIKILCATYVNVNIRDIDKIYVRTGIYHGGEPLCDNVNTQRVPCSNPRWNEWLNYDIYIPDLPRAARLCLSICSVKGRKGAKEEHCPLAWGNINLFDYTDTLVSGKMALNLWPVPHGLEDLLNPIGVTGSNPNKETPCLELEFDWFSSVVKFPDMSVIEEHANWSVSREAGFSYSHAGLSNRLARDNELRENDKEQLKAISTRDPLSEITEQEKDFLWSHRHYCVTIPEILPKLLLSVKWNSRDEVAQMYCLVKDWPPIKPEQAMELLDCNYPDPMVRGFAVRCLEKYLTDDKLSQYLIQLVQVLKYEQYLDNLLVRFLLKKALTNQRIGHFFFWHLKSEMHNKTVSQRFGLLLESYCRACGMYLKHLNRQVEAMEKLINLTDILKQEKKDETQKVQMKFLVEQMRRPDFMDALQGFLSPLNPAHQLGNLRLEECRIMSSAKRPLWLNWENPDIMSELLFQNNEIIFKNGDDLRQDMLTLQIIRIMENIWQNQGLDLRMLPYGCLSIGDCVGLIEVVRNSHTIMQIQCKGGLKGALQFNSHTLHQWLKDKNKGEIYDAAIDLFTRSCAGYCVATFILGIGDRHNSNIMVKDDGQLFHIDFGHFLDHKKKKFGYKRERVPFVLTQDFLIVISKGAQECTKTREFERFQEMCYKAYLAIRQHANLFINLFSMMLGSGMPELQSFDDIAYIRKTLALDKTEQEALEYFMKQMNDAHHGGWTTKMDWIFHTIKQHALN
UniProt Q9BUB5, sequence (whole entry, looked up): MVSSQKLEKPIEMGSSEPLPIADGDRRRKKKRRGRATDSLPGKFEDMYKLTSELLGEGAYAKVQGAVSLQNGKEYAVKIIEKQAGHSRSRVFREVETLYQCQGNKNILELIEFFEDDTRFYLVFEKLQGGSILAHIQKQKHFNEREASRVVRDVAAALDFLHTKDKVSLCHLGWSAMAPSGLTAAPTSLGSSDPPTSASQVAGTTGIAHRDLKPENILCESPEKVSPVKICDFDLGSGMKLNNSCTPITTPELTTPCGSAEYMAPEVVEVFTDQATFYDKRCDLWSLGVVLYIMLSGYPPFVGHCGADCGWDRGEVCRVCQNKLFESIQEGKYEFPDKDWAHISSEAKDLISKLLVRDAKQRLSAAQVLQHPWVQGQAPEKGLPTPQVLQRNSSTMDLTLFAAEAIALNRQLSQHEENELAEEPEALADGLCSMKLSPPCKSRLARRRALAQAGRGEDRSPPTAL

| Structure (SMILES) | target or system | assay | system | conditions | endpoint | result |
| --- | --- | --- | --- | --- | --- | --- |
| NCCCC[C@@H]1NC(=O)[C@@H](CCCCN)NC(=O)[C@H](CO)NC(=O)[C@H](Cc2c[nH]c3ccccc23)NC(=O)[C@@H](Cc2c[nH]c3ccccc23)NC(=O)[C@H](Cc2ccccc2)NC(=O)[C@@H](CCCCN)NC1=O | Balamuthia mandrillaris | parasite growth, ATP luminescence |  |  | IC90 | > 16 µg/mL |
| [2H]c1c([2H])c([C@]2([2H])CCCN2C(=O)C(C)(C)Oc2ccc3cn[nH]c3c2)c([2H])c([2H])c1C([2H])([2H])[2H] | MKNK1 (Homo sapiens, UniProt Q9BUB5) | binding, competition with immobilised ligand |  | 1 µM | remaining binding | 100% |
| O=c1c2cc(C(F)(F)F)ccc2[nH]c(=S)n1Cc1cccnc1 | 4'-phosphopantetheinyl transferase PptT | enzyme activity, inhibitor, FP |  |  | IC50 | 1.21 µM |
| O=C(NNc1ccccc1)c1nnc(CC23CC4CC(CC(C4)C2)C3)o1 | Pyricularia grisea | microbial growth |  | 50 µg/mL | inhibition | 44.3% |
| CC[C@H](C)[C@@H]1NC(=O)[C@H](CO)NC(=O)[C@H](C(C)C)NC(=O)[C@H](CC(C)C)NC(=O)[C@H](CC(C)C)NC(=O)[C@H]2CCCN2C(=O)[C@@H](CC(C)C)NC(=O)CNC(=O)[C@H]2CCCN2C(=O)[C@@H](Cc2ccc(O)cc2)NC1=O |  |  | aqueous buffer | 18 h, pH 7.4 | thermodynamic solubility | 687 µM (≈ 724 µg/mL) |
| O=c1cc(CSc2ccc(N=Cc3ccccc3Cl)cc2)occ1O |  | ABTS scavenging, absorbance |  |  | IC50 | 0.02 µM |
| COc1ccc(Nc2nn3c(-c4ccccc4)ccnc3c2C(=O)Nc2ccccc2)cc1 | Caco-2 | cell growth or viability, MTT |  | 100 µg/mL, 48 h, serum-free | viability | 27.1% |
| CC(C)[C@@H]1NC(=O)[C@@H](CC(N)=O)NC(=O)[C@H](Cc2ccccc2)NC(=O)[C@@H](CCCN)NC(=O)[C@H](CCCN)NC(=O)[C@H]([C@@H](C)O)NC(=O)[C@@H](C(C)C)NC(=O)[C@H](C(C)C)NC(=O)[C@@H]([C@H](C)O)NC(=O)[C@@H](C(C)C)NC1=O | Balamuthia mandrillaris | parasite growth, ATP luminescence |  |  | IC90 | > 16 µg/mL |
| O=C(NNc1ccc(Cl)cc1)c1nnc(C23CC4CC(CC(C4)C2)C3)o1 | Pyricularia grisea | microbial growth |  |  | EC50 | 7.49 µg/mL (≈ 20.1 µM) |
| CC(C)[C@@H]1NC(=O)[C@@H](CCCN)NC(=O)[C@H]([C@@H](C)O)NC(=O)[C@H](Cc2ccccc2)NC(=O)[C@@H](Cc2ccccc2)NC(=O)[C@H](Cc2ccccc2)NC(=O)[C@@H](CCCN)NC1=O | Balamuthia mandrillaris | parasite growth, ATP luminescence |  |  | IC50 | > 16 µg/mL |
| O=c1cc(CSc2ccc(N=Cc3ccc(C(F)(F)F)cc3)cc2)occ1O |  | ABTS scavenging, absorbance |  |  | IC50 | 20.4 µM |
| C[N+]1=C2C=C(N/C=C/c3ccc(O)cc3)C(=O)c3[nH]cc(c32)CC1 | Babesia duncani | parasite growth, SYBR Green |  | 60 h, blood stage | IC50 | 0.208 µM |
| COC(=O)c1cc(-c2cccc(NC(=S)Nc3cc(C(F)(F)F)cc(C(F)(F)F)c3)c2)on1 | Escherichia coli | microbial growth, broth dilution | ATCC25922 |  | MIC | > 64 µg/mL |
| CC(C)[C@@H]1NC(=O)[C@@H](CCCCN)NC(=O)[C@H](CCCN)NC(=O)[C@@H](CC(=O)O)NC(=O)[C@H](C)NC(=O)[C@H](Cc2c[nH]c3ccccc23)NC(=O)[C@@H](Cc2ccccc2)NC1=O | Balamuthia mandrillaris | parasite growth, ATP luminescence |  |  | IC50 | > 16 µg/mL |
| O=C(NNc1cc(F)ccc1F)c1nnc(C23CC4CC(CC(C4)C2)C3)o1 | Pyricularia grisea | microbial growth |  |  | EC50 | > 12.5 µg/mL |
| C#Cc1ccc2c(c1)C(c1ccccn1)=NCc1c(-c3cnco3)ncn1-2.Cl |  |  | water | 40 min, 37 °C | kinetic solubility | 2740 µg/mL |
| O=c1cc(CSc2ccc(N=Cc3cccc(F)c3)cc2)occ1O |  | ABTS scavenging, absorbance |  |  | IC50 | 0.22 µM |
| C[N+]1=C2C=C(NCCc3ccc(O)cc3)C(=O)c3[nH]cc(c32)CC1 | Babesia duncani | parasite growth, SYBR Green |  | 60 h, blood stage | IC50 | 0.166 µM |
| N#C[Se]Cc1cc(=O)oc2cc(O)ccc12 | MIA PaCa-2 | cell growth or viability, SRB |  |  | GI50 | 19 µM |
| O=C1C=C2NCCc3c[nH]c(c32)C1=O | Babesia duncani | parasite growth, SYBR Green |  | 60 h, blood stage | IC50 | 71.2 µM |

| Structure (SMILES) | target or system | assay | system | conditions | endpoint | result |
| --- | --- | --- | --- | --- | --- | --- |
| COC(=O)c1cc(-c2cccc(NC(=O)Nc3cccc(Br)c3)c2)on1 | Mycobacteroides abscessus | microbial growth, broth dilution | ATCC19977 | 48 h | MIC | > 64 µg/mL |
| Cc1sc2c(c1C)C(c1ccc(Cl)cc1)=N[C@H](CC(=O)OC(C)(C)C)c1nnc(C)n1-2 | OCI-Ly1 | cell growth or viability, ATP luminescence |  | 0.1 µM, 5 days | viability | 202% |
| Cc1ccc(C=Nc2ccc(SCc3cc(=O)c(O)co3)cc2)cc1 |  | ABTS scavenging, absorbance |  |  | IC50 | 16.1 µM |
| NCCCC[C@H]1NC(=O)[C@H](CO)NC(=O)[C@H](Cc2ccccc2)NC(=O)[C@@H](Cc2ccccc2)NC(=O)[C@H](Cc2c[nH]c3ccccc23)NC(=O)[C@@H](CCCN)NC(=O)[C@H](CCCN)NC1=O | Balamuthia mandrillaris | parasite growth, ATP luminescence |  |  | IC50 | > 16 µg/mL |
| COc1ccc(Nc2nn3c(-c4ccccc4)ccnc3c2C(=O)Nc2ccc(Cl)cc2)cc1 | Caco-2 | cell growth or viability, MTT |  | 6.25 µg/mL, 48 h, serum-free | viability | 60% |
| N.N.[Cl][Pt][Cl] | Raji | cell growth or viability, ATP luminescence |  | 10 µM, 72 h | inhibition | 97% |
| COc1ncccc1-c1cnn2ccc(N3CCN(C(=O)OC(C)C)CC3)nc12 | GRK1 (Homo sapiens, UniProt Q15835) | binding, competition with immobilised ligand |  | 1 µM | remaining binding | 100% |
| Cc1cccc(C=Nc2ccc(SCc3cc(=O)c(O)co3)cc2)c1 |  | ABTS scavenging, absorbance |  |  | IC50 | 22.9 µM |
| N#CN=c1[nH]c2ccc(Cl)cc2c(=O)n1Cc1cccnc1 | 4'-phosphopantetheinyl transferase PptT | enzyme activity, inhibitor, FP |  |  | IC50 | 22.4 µM |
| Nc1ncc(-c2nc(N3CCOCC3)nc(N3CCOCC3)n2)c(C(F)F)n1 | ULK3 (Homo sapiens, UniProt Q6PHR2) | binding, competition with immobilised ligand |  | 10 µM | remaining binding | 60% |
| COC(=O)c1cc(-c2cccc(NC(=S)Nc3ccc(F)cc3F)c2)on1 | Acinetobacter baumannii | microbial growth, broth dilution | BAA1605 |  | MIC | > 64 µg/mL |
| Cc1nn(C)cc1-c1nc2c(N3CCN(Cc4ccc(Cl)cc4)CC3)c(Cl)cnc2[nH]1 | PIK3CA (Homo sapiens, UniProt P42336, M1043I) | binding, competition with immobilised ligand |  | 1 µM | remaining binding | 92% |
| NCCCC[C@H]1NC(=O)[C@H](Cc2ccccc2)NC(=O)[C@@H](Cc2ccccc2)NC(=O)[C@H](Cc2ccccc2)NC(=O)[C@@H](CCCN)NC(=O)[C@H](CCCN)NC1=O | Balamuthia mandrillaris | parasite growth, ATP luminescence |  |  | IC90 | > 20 µM |
| O=C(NNc1ccc(F)c(F)c1)c1nnc(CC23CC4CC(CC(C4)C2)C3)o1 | Pyricularia grisea | microbial growth |  |  | EC50 | > 50 µg/mL |
| COC(=O)c1cc(-c2cccc(NC(=O)Nc3ccc(C)c(Cl)c3)c2)on1 | Acinetobacter baumannii | microbial growth, broth dilution | BAA1605 |  | MIC | > 64 µg/mL |
| O=C(NNc1ccc(F)c(F)c1)c1nnc(C23CC4CC(CC(C4)C2)C3)o1 | Pyricularia grisea | microbial growth |  | 50 µg/mL | inhibition | 51.4% |
| CC(C)[C@H]1NC(=O)[C@H](CCCNC(=N)N)NC(=O)CNC(=O)[C@@H](Cc2c[nH]c3ccccc23)NC(=O)[C@H](CCCCN)NC(=O)[C@@H](CCCN)NC1=O | Balamuthia mandrillaris | parasite growth, ATP luminescence |  |  | IC90 | > 16 µg/mL |
| O=C(NNc1cc(F)ccc1F)c1nnc(CC23CC4CC(CC(C4)C2)C3)o1 | Pyricularia grisea | microbial growth |  |  | EC50 | 6.25 µg/mL (≈ 16.1 µM) |
| CC(C)[C@@H]1NC(=O)[C@@H](CCCN)NC(=O)[C@H]([C@@H](C)O)NC(=O)[C@@H](CCCN)NC(=O)[C@H](Cc2ccccc2)NC(=O)[C@@H](C)NC(=O)[C@@H](C(C)C)NC(=O)[C@@H](C)NC(=O)[C@H](Cc2c[nH]c3ccccc23)NC(=O)[C@@H](Cc2c[nH]c3ccccc23)NC1=O | Balamuthia mandrillaris | parasite growth, ATP luminescence |  |  | IC90 | > 16 µg/mL |

Repeated from above:
| Structure (SMILES) | target or system | assay | system | conditions | endpoint | result |
| --- | --- | --- | --- | --- | --- | --- |
| COc1ccc(Nc2nn3c(-c4ccccc4)ccnc3c2C(=O)Nc2ccccc2)cc1 | Caco-2 | cell growth or viability, MTT |  | 100 µg/mL, 48 h, serum-free | viability | 27.1% |
| CC(C)[C@@H]1NC(=O)[C@@H](CCCN)NC(=O)[C@H]([C@@H](C)O)NC(=O)[C@@H](CCCN)NC(=O)[C@H](Cc2ccccc2)NC(=O)[C@@H](C)NC(=O)[C@@H](C(C)C)NC(=O)[C@@H](C)NC(=O)[C@H](Cc2c[nH]c3ccccc23)NC(=O)[C@@H](Cc2c[nH]c3ccccc23)NC1=O | Balamuthia mandrillaris | parasite growth, ATP luminescence |  |  | IC90 | > 16 µg/mL |
| CC(C)[C@H]1NC(=O)[C@H](CCCNC(=N)N)NC(=O)CNC(=O)[C@@H](Cc2c[nH]c3ccccc23)NC(=O)[C@H](CCCCN)NC(=O)[C@@H](CCCN)NC1=O | Balamuthia mandrillaris | parasite growth, ATP luminescence |  |  | IC90 | > 16 µg/mL |
| [2H]c1c([2H])c([C@]2([2H])CCCN2C(=O)C(C)(C)Oc2ccc3cn[nH]c3c2)c([2H])c([2H])c1C([2H])([2H])[2H] | MKNK1 (Homo sapiens, UniProt Q9BUB5) | binding, competition with immobilised ligand |  | 1 µM | remaining binding | 100% |
